Assay results from different studies.
Each line is one published result; not all experiments were run side by side. Values joined by “and” are separate records of one study, mostly repeats; a detail may differ.
MAPK14: Mitogen-activated protein kinase 14 (MAPK14, Homo sapiens, UniProt Q16539)
Chain of UniProt Q16539 (whole entry, unmodified, looked up): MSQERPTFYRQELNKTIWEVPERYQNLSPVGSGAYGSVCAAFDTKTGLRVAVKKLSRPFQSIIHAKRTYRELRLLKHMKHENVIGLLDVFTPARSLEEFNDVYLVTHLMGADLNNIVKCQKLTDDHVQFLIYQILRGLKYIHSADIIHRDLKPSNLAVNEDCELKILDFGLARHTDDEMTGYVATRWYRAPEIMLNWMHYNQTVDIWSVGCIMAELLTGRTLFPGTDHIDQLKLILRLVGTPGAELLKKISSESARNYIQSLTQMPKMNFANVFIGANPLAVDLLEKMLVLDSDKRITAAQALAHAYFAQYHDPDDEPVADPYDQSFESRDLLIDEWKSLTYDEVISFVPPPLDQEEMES

| SMILES | target | assay | system | setting | scale | endpoint | result |
| --- | --- | --- | --- | --- | --- | --- | --- |
| CC1CCc2nc(-c3c[nH]nc3-c3ccccc3)ccc2N1 (stereo not shown) | MAPK14 | cell-free assay, competition with immobilised ligand | – | 10 µM | – | remaining binding | 14% |
| Nc1ncc2c(n1)-c1c([nH]c3ccc(C4=CCOCC4)cc13)CCC2 | MAPK14 | binding, competition with immobilised ligand | – | 1 µM | – | remaining binding | 100% |
| Cc1cnc2nc1Nc1cccc(c1)COC/C=C/COCc1cc(ccc1OCCN1CCOCC1)N2 | MAPK14 | cell-free assay | – | 0.1 µM | – | remaining signal | 89% |
| COC(=O)[C@@]1(Cc2ccccc2)C=C(C(=O)OC(C)(C)C)C(=O)CC1 | MAPK14 (Homo sapiens, UniProt Q16539, C119V) | peptide binding, fluorescence polarization | – | 1000 µM | – | fraction bound | 0.00215 |
| NC(=O)C[C@H]1CCc2sc3ncnc(O[C@H]4CC[C@H](N5CCOCC5)CC4)c3c21 | MAPK14 | enzyme activity, inhibitor | – | 10 µM | – | inhibition | 0% |
| Cc1nc2c(F)cc(-c3nc(Nc4ccc(CNC(=O)CCCCCCC(=O)NO)cc4)ncc3F)cc2n1C(C)C | MAPK14 | enzyme activity, inhibitor | – | 1 µM | – | inhibition | 24% |
| COc1cc(-n2cc3cc(F)cc(C(N)=O)c3n2)cc(Cl)c1C1CC(O)(CCO)Cc2ccccc21 (stereo not shown) | MAPK14 | enzyme activity, inhibitor | – | 10 µM | – | inhibition | 0.39% |
| C=C1CC2(C(=O)OC)C=C(C(=O)OC(C)(C)C)C(=O)C1C2 (stereo not shown) | Mitogen-activated protein kinase 14, with MKK6 (MAPK14, Homo sapiens, UniProt Q16539) | protein-protein interaction, NanoBiT, measured: MKK6-p38α binding | HEK293T | 10 µM | baseline: DMSO control | luminescence relative to control | 0.489 |
| CNC(=O)C1CCN(c2cc(C)c(F)cc2NC(=O)c2ccc(-c3cc(O)ccc3C)c(C)c2)CC1 | MAPK14 | binding, competition with immobilised ligand | – | 1 µM | – | remaining binding | 95% |
| COCC12C(=O)NC3C4(C(OC)CC1O)C1CC5(O)C(OC)C(O)C(OC(C)=O)(C1C5OC(=O)c1ccccc1)C3(O)C(OC)C24 (stereo not shown) | MAPK14 | kinase activity, inhibitor, ProQinase kinase profiling | – | 25 µM | baseline: control | remaining activity | 87% and 100% |
| COc1cc(Nc2nccc(-c3cnn4nc(OC)ccc34)n2)cc(C(F)(F)F)c1 | MAPK14 | binding, competition with immobilised ligand | – | 1 µM | – | remaining binding | 100% |
| CC(C)=CC1OC(C)(C)C2C=C3C(=O)C(Cl)=CC(O)C3C3C(O)C4OC4C(=O)C132 (stereo not shown) | MAPK14 | cell-free assay, competition with immobilised ligand | – | 10 µM | – | remaining binding | 93% |
| c1ccc2c(Nc3cc(C4CCC4)[nH]n3)nc(Nc3ccc4nc[nH]c4c3)nc2c1 | MAPK14 | enzyme activity, inhibitor | – | 0.25 µM | – | remaining activity | 98% |
| CNC1C[S+]2CC[S+]3CC[S+](C1)[Ru-4]321([N]=C=S)[n]2c3ccc(OC)cc3c3c4c(c5cc(F)c[n+]1c5c32)C(=O)NC4=O (stereo not shown) | MAPK14 | KinomeScan | – | 0.1 µM | baseline: untreated | remaining binding | 98% |
| Cc1cccc(O[C@H]2CCC[C@@H](C(C)CNCc3ccncc3)C2)c1 (relative stereo) | MAPK14 | kinase activity, kinome panel screening | – | 1 µM | – | inhibition | 3% |
| C=CC(=O)Nc1cccc(-c2cnc3[nH]cc(C(=O)NC(C)(C)C)c3n2)c1 | MAPK14 | enzyme activity, inhibitor | – | 0.1 µM | – | inhibition | 5% |
| CS(=O)(=O)Nc1cccc(-c2csc3cnc(Nc4ccc(N5CCN(CCCCCOc6cccc7c6C(=O)N(C6CCC(=O)NC6=O)C7=O)CC5)cc4)nc23)c1 (stereo not shown) | MAPK14 | kinase probe labelling, binder, KiNativ ATP-acylphosphate LC-MS | MOLT-4 live cells | 1 µM | – | inhibition | -14.3% |
| CN1CCN(Cc2ccc(NC(=O)c3cccc(C#Cc4cnc(N)c5ncccc45)c3)cc2C(F)(F)F)CC1 | MAPK14 | cell-free assay, competition with immobilised ligand | – | 50 nM | – | remaining binding | 33% |
| C=CC(=O)N1CCc2ccc(-n3c(=O)ccc4cnc5ccc(-c6cnn(C)c6)cc5c43)cc21 | MAPK14 | KINOMEscan | – | 1 µM | baseline: DMSO control | remaining binding | 100% |
| CN1CCN(Cc2ccc(-c3ccc(CO[C@H]4CCC[C@@H]4NC(=O)c4cc(-c5cnn(C)c5)cnc4N)cc3)cc2)CC1 | MAPK14 | enzyme activity, inhibitor | – | 0.1 µM | – | inhibition | 3% and 10% |
| COc1ccc(NC(=O)Nc2ccc3c(c2)C(=O)N(C(C)CO)CC(C)C(CN(C)Cc2ccc4c(c2)OCO4)O3)cc1 (stereo not shown) | MAPK14 | kinase activity, KinaseProfiler | – | 0.03 µM, species human | baseline: control | remaining activity | 106% |
| Cc1cccc(-c2ccc3nc(NC(=O)C4CCOCC4)nn3c2)c1 | MAPK14 | enzyme activity, Dundee kinase panel | – | 10 µM | – | remaining activity | 95% |
| CCN1CCN(Cc2ccc(C(=O)Nc3ccc(C)c(NCc4cnc5[nH]ccc5c4OC)c3)cc2C(F)(F)F)CC1 | MAPK14 | binding, competition with immobilised ligand | – | 1 µM | – | remaining binding | 0.9% |
| C#CCOC(=O)[C@]1(C)C=C(C(=O)OC(C)(C)C)C(=O)CC1 | MAPK14 | kinase activity, D-site sensor | – | – | – | initial slope | 8430 and 9600 and 8780 |
| C=CC(=O)N1CCCC(n2c(=O)c3ncccc3n(Cc3ccc(Oc4ccccc4)cc3)c2=O)C1 (stereo not shown) | MAPK14 | cell-free assay, competition with immobilised ligand | – | 1 µM | – | remaining binding | 95% |
| C[C@H](c1ccccc1)N1C(=O)C2=Nc3cccc(Cl)c3CN2C1=S | MAPK14 | enzyme activity, inhibitor | – | 1.5 µM | – | inhibition | ≥ 85% |
| O=C=[N][Ru-4]123([n]4c5ccc(O)cc5c5c6c(c7cc(F)c[n+]1c7c54)C(=O)NC6=O)[S+]1CC[S+]2CC[S+]3CC1 (stereo not shown) | MAPK14 (Homo sapiens, UniProt Q16539, T106M) | enzyme activity | – | 100 nM, human enzyme, with: 10 µM ATP | baseline: untreated | remaining activity | 106% |
| Cc1ccc(C)c(-c2ccc3nc(NC(=O)C4CCCCC4)nn3c2)c1 | MAPK14 | enzyme activity, Dundee kinase panel | – | 10 µM | – | remaining activity | 95% |
